Assay results pooled from the literature.
Every numbered part comes from another study and shows a few of its results, in no order. Positions count from the first letter of the parent shown.

Block 1
Target: NFE2L1, bZIP domain (human)
Method: DHFR protein complementation
Matrix: yeast
Setting: single substitutions, most at no-binding floor
Reference: wild-type JUN-FOS pair
Reading: higher = stronger binding
Measurement: binding fitness
Parent: JUN, bZIP domain (human); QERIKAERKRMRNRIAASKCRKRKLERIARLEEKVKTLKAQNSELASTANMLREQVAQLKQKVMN; partner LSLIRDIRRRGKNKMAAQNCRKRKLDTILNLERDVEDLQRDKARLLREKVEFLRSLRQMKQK
V35W: -1.31 natural log
S43T: -1.49 natural log
T48G: -1.5 natural log
L38F: -1.46 natural log
S43V: -1.37 natural log
L38G: -1.48 natural log
T37R: -1.35 natural log
L45W: -1.5 natural log
V56G: -1.52 natural log
V35L: -1.36 natural log
S47I: -1.48 natural log
V56A: -1.51 natural log
L38R: -1.51 natural log
E32G: -1.5 natural log

Block 2
Target: ABI1, truncated, D143A, DHFR fusion (Arabidopsis thaliana)
Method: DHFR PCA, deep sequencing
Matrix: yeast
Setting: methotrexate growth selection, single substitutions
With: (+)-ABA 0.39 µM
Reference: wild-type fitted maximum
Reading: higher = stronger binding
Measurement: relative binding score
Parent: PYL1, truncated, DHFR fusion (Arabidopsis thaliana); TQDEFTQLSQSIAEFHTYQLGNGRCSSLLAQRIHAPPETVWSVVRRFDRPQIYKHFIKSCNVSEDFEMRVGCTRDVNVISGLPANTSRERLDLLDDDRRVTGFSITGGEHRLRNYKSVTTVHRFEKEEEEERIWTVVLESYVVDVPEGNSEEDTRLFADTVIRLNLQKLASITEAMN
I133A: 55.8%
V142A: 33.6%
T1M: 47.5%
H16N: -3.81%
L28I: 65.3%
F56P: -3.8%
N85G: 33.2%
E151H: 26.8%
K58Y: -1.05%
L112Y: -5.56%
C60K: -13.2%
N61K: 65.5%
V145H: -32.4%
E127T: 56.2%
L93D: 0.656%
S42A: 49.9%

Block 3
Target: RNA binding protein fox-1 homolog 2, RRM domain, GST-SBP tag (RBFOX2, Homo sapiens, UniProt O43251-10, residues 100-194)
Method: RNA Bind-n-Seq
Form: RNA
Matrix: in vitro
Tested at: 365 nM
Setting: natural RNA segment, single round, ends assumed
Reference: no-protein control
Reading: higher = stronger binding
Measurement: RBNS enrichment (R)
All sequences stand within: GGGAGUUCUACAGUCCGACGAUC … UGGAAUUCUCGGGUGCCAA
Residues (chain): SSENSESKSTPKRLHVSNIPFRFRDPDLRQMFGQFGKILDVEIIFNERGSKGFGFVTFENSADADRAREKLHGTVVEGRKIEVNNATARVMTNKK
UUAUGAUAGAUAUGCACAUCAAAGCCUUUACCAGUAUCUUCCUGUAUUCCGUAUCAGAUUGCAAAGACGGAAUGUUACUAUUUUAUCAGCAAGGUAUUAAAAUGCAUUUA: 2.3
UUGUAAAGAGCAAAAUUACUUUCAGGUCCCUUGUUGAGGGAACAGGUCAGCGUUAUCCUGCCAGACAUCUGGGUCAGGAACUUGGGAGACAACAUCUGCUUACCUGGCAG: 0.294
GCUAAUGCAAUUAGCAUUAUGUUUUGCAUGUAUGACUUAAUAAAUCCUUGAAUCAUACGACUGGUAAUACUGGUGUUUUUGAGACUUGAUGAACAAGUUCCUGGUGUGUG: 2.56
AGUGACCCUGUUUUGUGGCAUUCAUGCAAAACAUGCUGAGGGCUUUGUUCAUCUGGUCAUCGUGUCCAAAUUUCAGUCAUGUUUGUAGCAAGAUUUUGGAAGCAUUCAUA: 2.04
UUACUAUAUAGUUGAAGAUGGCCUUGACCUCCUGACCCCUGCCUCAGCCAUGCCUGGCUAGGACAGCCAAAUUGUUGUUGUUUCAAGUCUGGUUUCAUUUGCUUCCCUGC: 0.557
AAAAGAACAGAGUGCAUCUCUUGGGAUGGGCUUCUCUCGGAGUGUAAAAGCAAGGGGCCAGGAUUGUGCUGGCAGCCAGGGAGACAGUAGUGCCUGCGGAAGUUGGCAGA: 0.532
UGCCGCAGCAAAUGAGGCUUCUCUCUGAGGAGCUGAGAGGUCUUGCAGCCUCUCCUUGUCAUUCUCCCACCCCACAUCCCAUUUUUUAAAGCCCUUUUGGUAAAAACCAA: 0.248
CAUGUCAACUCCUGUACUUCCCUUACUCUGUUGCCUUUCUUGAGAUGCAUUGUCCUGCUAACCCACAAACCUGUUUGGAAAUAAACAUGGAAGAAUAUCUGGCAGGCUUA: 0.332
CAUUUUUUUGUGUGAAGUAAAUUAAUCAACUAGAGAGGUGCAAAACGUUCUCAGUUGAUAUCUGAGUAUUGGGUGCAUUUGGUGGCUUAAAAGCAAAGCUUCCUAAAAAG: 0.486
UGGCCCAUCUGCUGCCCACCAAGUCCCUUUCCAGCCACUGUGUGCUGGGGGCUUUCGGGGGCAGUUGCCCACCUCCUCAGGGCAGCUCUUUCUGGCCUUUUGGGGGGCAG: 0.412
UAGCAGGCCUUUGUAUGUGUGUACAUAUAUAUAUAUAUAACAAAACAUCAGCCUUGGGUGGUGUGUUCCUAUAUAAACUCCAAAGGGAAACACACCGACUGCCUCAGCAA: 0.274
AAAAGCAAAAAACGUGAGGUUGGGACUCAGUAGGUGAGGGUGCUUGCAGCCAAACCUGAUGACCUGCAUUCAAUUCCUGGGUCCCACGGGACAGAGGGAGAGAGUCCACU: 0.287

Block 4
Target: Histone acetyltransferase KAT6A, winged helix 2, GST fusion (KAT6A, Homo sapiens, UniProt Q92794, residues 85-181)
Method: protein binding microarray
Form: double-stranded DNA, one strand shown
Matrix: in vitro
Tested at: not given
Setting: 8-mer, flanks averaged, mean of 2 arrays, mostly near background
Reference: not given
Reading: higher = stronger binding
Measurement: E-score
Construct (chain): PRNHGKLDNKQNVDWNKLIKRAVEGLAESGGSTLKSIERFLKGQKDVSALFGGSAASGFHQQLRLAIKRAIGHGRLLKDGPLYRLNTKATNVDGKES
CTCTGGCC: 0.107
ATGCTTGC: 0.0103
AATAACGA: -0.0826
CGAGATAG: -0.119
GGCAGATA: 0.00498
CTCGGAAG: -0.00458
AACTTTCC: -0.147
CACTACAA: 0.0327
ATCAGCCG: 0.14
CCGATACC: -0.00308
ATCTTTCA: -0.0903
CCCCTTAG: -0.041
AGAGCAAA: 0.191
ATGAGGAA: -0.078
AACGTATG: -0.0871
AATCGAAA: -0.0391
ATAAATCA: 0.104
CCAATAGA: -0.0772

Block 5
Target: CCNB2, cyclin fold, Cln2 fusion (human)
Method: yeast growth competition, sequencing
Matrix: yeast
Setting: weak parent motif
Reference: not given
Reading: higher = stronger binding
Measurement: normalised enrichment score
Parent: CDKN1A docking peptide (human); SKACRRLFGPVDS; partner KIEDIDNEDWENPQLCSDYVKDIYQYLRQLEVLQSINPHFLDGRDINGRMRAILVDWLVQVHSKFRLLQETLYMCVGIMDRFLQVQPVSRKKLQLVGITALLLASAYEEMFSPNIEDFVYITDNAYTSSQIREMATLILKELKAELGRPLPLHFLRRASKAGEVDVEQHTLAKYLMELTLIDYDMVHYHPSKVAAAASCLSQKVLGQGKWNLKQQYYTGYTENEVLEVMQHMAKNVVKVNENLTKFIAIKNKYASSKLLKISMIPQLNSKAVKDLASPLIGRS
SKACRRLFGYVDS [P10Y]: 0.499
SKACRNLFGPVDS [R6N]: -0.104
SKACRRLFGPVSS [D12S]: -0.236
SKQCRRLFGPVDS [A3Q]: 0.321
SKACRRLFGPSDS [V11S]: -0.0297
SKACRRLDGPVDS [F8D]: 0.0334
SKICRRLFGPVDS [A3I]: 0.631
SKACRRLFMPVDS [G9M]: 0.243
SKACRMLFGPVDS [R6M]: 0.322
SKACSRLFGPVDS [R5S]: 0.00732
SKACRRLFGPYDS [V11Y]: 0.479
SKACRRLFEPVDS [G9E]: 0.128
SKACRRWFGPVDS [L7W]: 0.281
SHACRRLFGPVDS [K2H]: 0.256
SKACCRLFGPVDS [R5C]: -0.123
SKACQRLFGPVDS [R5Q]: -0.199
SKAIRRLFGPVDS [C4I]: 0.24
SKADRRLFGPVDS [C4D]: 0.125
SKACRRTFGPVDS [L7T]: 0.774
SKACRRLFGPGDS [V11G]: 0.43
SKACRRLFFPVDS [G9F]: -0.0745
SKACRRLFGPADS [V11A]: 0.476

Block 6
Target: TAR DNA-binding protein 43, full length, His tag (TARDBP, Homo sapiens, UniProt Q13148, residues 1-414)
Method: RNA Bind-n-Seq
Form: RNA
Matrix: in vitro
Tested at: 20 nM
Setting: 6-mer, flanks averaged, single round
With: 150 mM LiCl
Reference: input library
Reading: higher = stronger binding
Measurement: 6-mer enrichment (R)
UAUCGA: 0.823
GUUGGU: 1.26
UGUAUG: 1.87
AUACUC: 0.84
AACAAC: 0.92
UACGUA: 0.903
CAAGAG: 0.908
GGCAGC: 1.01
UGGUAA: 1
AUAAUA: 1.38
CGAUGG: 0.938
GAUCGU: 1.06
CGCGCA: 0.95
GAACAU: 0.864
UCCCGG: 0.931
UAUCUU: 0.984
UUCGGU: 0.949
AUUCAC: 0.87
AAUGAU: 0.911

Block 7
Target: UBE2E1 UBC core domain (UniProt P51965)
UniProt P51965, sequence (whole entry, looked up): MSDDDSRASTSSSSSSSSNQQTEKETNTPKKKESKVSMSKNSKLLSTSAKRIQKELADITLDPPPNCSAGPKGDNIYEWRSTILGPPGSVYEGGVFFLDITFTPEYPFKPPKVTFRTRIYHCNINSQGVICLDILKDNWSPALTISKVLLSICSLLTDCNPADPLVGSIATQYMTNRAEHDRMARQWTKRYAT
Method: yeast two-hybrid
Matrix: yeast
Setting: mostly zero background
Reference: not given
Reading: higher = stronger interaction
Measurement: lacZ reporter activity
B1: RNF150 RING domain (UniProt Q9ULK6); chain DKETESDFDNCAVCIEGYKPNDVVRILPCRHLFHKSCVDPWLLDHRTCPMCKMNILKALGIP
B2: NSMCE1 RING domain (UniProt Q8WV22); chain RETYPDAVKICNICHSLLIQGQSCETCGIRMHLPCVAKYFQSNAEPRCPHCNDYWPHEIPKV
B3: RNF14 RING domain (UniProt Q9UBS8); chain IKCFNSKLFLCSICFCEKLGSECMYFLECRHVYCKACLKDYFEIQIRDGQVQCLNCPEPKCPSVATPGQVK
B4: TRIM55 RING domain (UniProt Q9BYV6); chain TMDNLEKQLICPICLEMFTKPVVILPCQHNLCRKCASDIFQASNPYLPTRGGTTMASGGRFRCPSCRHEVVLDRHG
B5: TRIM15 RING domain (UniProt Q9C019); chain SLKVVHELPACTLCAGPLEDAVTIPCGHTFCRLCLPALSQMGAQSSGKILLCPLCQEEEQAETPMA
B6: TRIM35 RING domain (UniProt Q9UPQ4); chain PSRSFKEELLCAVCYDPFRDAVTLRCGHNFCRGCVSRCWEVQVSPTCPVCKDRASPADLRT
B7: RNF43 RING domain (UniProt Q68DV7); chain SGSSCSSAPVCAICLEEFSEGQELRVISCLHEFHRNCVDPWLHQHRTCPLCMFNITEGDSFS
B8: RNF4 RING domain (UniProt P78317); chain TGLRPSGTVSCPICMDGYSEIVQNGRLIVSTECGHVFCSQCLRDSLKNANTCPTCRKKINHKRYHP
B9: TRIM38 RING domain (UniProt O00635); chain STKKMMEEATCSICLSLMTNPVSINCGHSYCHLCITDFFKNPSQKQLRQETFCCPQCRAPFHMDSLRP
B10: RNF149 RING domain (UniProt Q8NC42); chain EKGIDVDAENCAVCIENFKVKDIIRILPCKHIFHRICIDPWLLDHRTCPMCKLDVIKALGYW
B11: PHF7 RING domain (UniProt Q9BWX1); chain IQHGHVGEESCILCCEDLSQQSVENIQSPCCSQAIYHRKCIQKYAHTSAKHFFKCPQCNNRKEFPQEML
B1 (RNF150 RING domain): 8330
B2 (NSMCE1 RING domain): 0
B3 (RNF14 RING domain): 0
MANWVFCNRCFQPPHRTSCFSLTNCGHVYCDACLGKGKKNECLICKAPCRTVLLSK (RNF212 RING domain (UniProt Q495C1)): 0
B4 (TRIM55 RING domain): 0
B5 (TRIM15 RING domain): 0
B6 (TRIM35 RING domain): 0
B7 (RNF43 RING domain): 2740
B8 (RNF4 RING domain): 3140
KRQCSDVDDICSICQAEFQKPILLICQHIFCEECMTLWFNREKTCPLCRTVISDHINKW (RNFT1 RING domain (UniProt Q5M7Z0)): 0
B9 (TRIM38 RING domain): 0
B10 (RNF149 RING domain): 0
LKQVSIRENCCSLCCDEVADTQLKPCGHSDLCMDCALQLETCPLCRKEIVSRIRQI (RSPRY1 RING domain (UniProt Q96DX4)): 0
B11 (PHF7 RING domain): 0

Repeated from above (block 2):
F56P: -3.8%
N85G: 33.2%
E151H: 26.8%
K58Y: -1.05%
L112Y: -5.56%
C60K: -13.2%
N61K: 65.5%
V145H: -32.4%
E127T: 56.2%
L93D: 0.656%
